Published values of several laboratories.
Each line is one published result; not all experiments were run side by side. Several values in a cell are separate wells, animals, samples, runs or records. Numbers after ± are the reported error.
POLB: DNA polymerase beta (POLB, Homo sapiens, UniProt P06746)
Enoyl-[acyl-carrier-protein] reductase [NADPH] FabI: Enoyl-[acyl-carrier-protein] reductase [NADPH] FabI (Staphylococcus aureus, UniProt Q6GI75)
SCTR: Secretin receptor (SCTR, Homo sapiens, UniProt P47872)
POLB I260M: DNA polymerase beta (POLB, Homo sapiens, UniProt P06746, I260M)
KDR: Vascular endothelial growth factor receptor 2 (KDR, Homo sapiens, UniProt P35968)

For `O=C(c1ccc(-c2ccc(Cl)cc2)o1)N1CCOc2cc(Cl)ccc21`, the activation was 1.74 fold and > 1.5 fold (Nuclear receptor subfamily 4 group A member 2, ligand binding domain (Homo sapiens, UniProt P43354); reporter gene, agonist, Gal4-Nurr1 hybrid reporter; HEK-293T; 3 µM, crude library product; reference: vehicle (0.1% DMSO)).
The Hill slope of `Oc1c(C(Nc2nccs2)c2cccc(OCc3ccccc3)c2)ccc2cccnc12` (stereo not shown) is reported as 1.27 ± 0.06 (Genome polyprotein, NS2B-NS3 protease (Dengue virus type 2, UniProt P14340); enzyme activity, inhibitor; 0.1% CHAPS, together with: Bz-Nle-Lys-Arg-Arg-AMC substrate).
The kpol of `Cc1cn(C2CC(O)C(COP(=O)(O)OP(=O)(O)C(Cl)P(=O)(O)O)O2)c(=O)[nH]c1=O` (mixture of isomers) is reported as 5.9 ± 0.5 s⁻¹ (POLB; nucleotide incorporation rate, substrate, single-turnover kinetics; single-nucleotide gapped DNA; 37 °C, wild type, correct incorporation, together with: dTTP opposite template A).
For `O=P(O)(O)O[C@@H]1[C@@H](O)[C@H](O)[C@H](O)[C@H](O)[C@H]1OP(=O)(O)O`, “fold loss of affinity” read 1.4 fold (Inositol 1,4,5-trisphosphate-gated calcium channel ITPR1, IP3-binding core (Itpr1, Rattus norvegicus, UniProt P29994, R504Q); binding, 3H-IP3 competition; IP3-binding core; reference: R504Q over wild type).
`COc1cc(C(=O)NC2CCC(N3CCN(CC4CCC5(CCCC5)C4)CC3)CC2)c(F)cc1Nc1ncc2c(n1)N(C1CCCC1(F)F)CC(F)(F)C(=O)N2C` (stereo not shown) gave an inhibition of 8.12% (Hepatocyte growth factor receptor (MET, Homo sapiens, UniProt P08581); cell-free assay, TR-FRET; 10 µM).
For `CC(/C=C/C(=O)NO)=C\[C@@H](C)C(=O)c1ccc(N(C)C)cc1`, the ΔCp was -0.21 ± 0.01 kcal mol^–1 K^–1 (Histone deacetylase 8 (HDAC8, Homo sapiens, UniProt Q9BY41); temperature-dependent ITC; Tris-HCl buffer; range from 5 °C).
Under “GFP expression increase”, `CC(C=O)Cc1ccc(C(C)(C)C)cc1` (stereo not shown) is recorded as 3.8 fold (Olfactory receptor 10S1 (OR10S1, Homo sapiens, UniProt Q8NGN2); reporter gene, agonist; yeast; reference: empty-vector control).
The koff of `O=C(NCc1cccc(O)c1)c1cc(Cl)c(C(=O)NC(CNC(=S)Nc2ccc(-c3c4ccc(=O)cc-4oc4cc(O)ccc34)c(C(=O)O)c2)C(=O)O)c(Cl)c1` (stereo not shown) is reported as 0.04 ± 0.003 s⁻¹ (Integrin alpha-L/beta-2 (LFA-1) (Homo sapiens, UniProt P05107+P20701); probe dissociation, real-time flow cytometry FRET; live cells).
The EC50 ratio of `CC(=O)[C@@]1(O)CC[C@H]2[C@@H]3CCC4=CC(=O)CC[C@]4(C)[C@H]3CC[C@@]21C` is reported as ~10 fold (ADGRG6, beta subunit (Homo sapiens, UniProt Q86SQ4); cAMP inhibition, GloSensor cAMP; reference: full-length GPR126 over ADGRG6 construct).
The residence time of `CCCCCCc1ccc(Oc2ccccc2N)c(O)c1` is reported as 68.5 min (Enoyl-[acyl-carrier-protein] reductase [NADPH] FabI; enzyme activity, inhibitor, progress curve kinetics).
Under activity, `CC(CCC(=O)NCC[S+](C)[O-])C1CCC2C3C(O)CC4CC(O)CCC4(C)C3CC(O)C12C` (stereo not shown) is recorded as “inactive” (Bile acid receptor (NR1H4, Homo sapiens, UniProt Q96RI1); receptor activation, antagonist; concentration not given, together with: GW4064).
With `COc1ccc(-c2cc(C(F)(F)F)nc(S(=O)(=O)CCCC(=O)Nc3ccccc3F)n2)cc1OC` the Emax was 25% (SCTR; cAMP, agonist).
For `Cc1ccc(NC(=O)CNS(=O)(=O)c2nc(-c3ccc(OC(F)(F)F)cc3)cc(C(F)(F)F)n2)cc1`, the kinact/KI was 14000 M⁻¹ s⁻¹ (Bifunctional 3'-5' exonuclease/ATP-dependent helicase WRN (WRN, Homo sapiens, UniProt Q14191); enzyme activity, inhibitor).
The remaining activity of `CNC(=O)c1cc(Oc2ccc(NC(=O)Nc3ccccc3)cc2)ccn1` is reported as 1.18 ± 0.16 fold (Signal peptidase IB (spsB, Staphylococcus aureus, UniProt Q5HHB9); enzyme activity, FRET peptide cleavage; Staphylococcus aureus membranes; 50 µM; reference: DMSO).
For `[3H]C([3H])([3H])c1cnccc1CN1C[C@@H](c2cc(F)c(F)c(F)c2)CC1=O`, the Bmax was 0.18 pmol/mg (Synaptic vesicle glycoprotein 2A (SV2A, Homo sapiens, UniProt Q7L0J3); radioligand binding, saturation binding; human Alzheimer disease, pooled frontal cortex homogenate).
The ΔS° of `Cc1ccc2ccc3ccc(C)nc3c2n1.Cc1ccc2ccc3ccc(C)nc3c2n1.O.[Cl-].[Cl-].[Cl-].[Yb+3]` is reported as -214.93 ± 0.03 J/mol/K (Albumin (ALB, Bos taurus, UniProt P02769); fluorescence quenching, van't Hoff; 290 to 303 K).
With `Cc1cn([C@H]2C[C@H](O)[C@@H](COP(=O)(O)OP(=O)(O)C(F)(F)P(=O)(O)O)O2)c(=O)[nH]c1=O` the kpol was 5.8 ± 1.4 s⁻¹ (POLB I260M; nucleotide incorporation rate, substrate, single-turnover kinetics; single-nucleotide gapped DNA; 37 °C, I260M, correct incorporation, together with: dTTP opposite template A).
`C1=[N+]2CCCC[N+]3=Cc4ccc5[n]4[Au-]23[n]2c1ccc2-c1nc2ccccc2nc1-5.F[P-](F)(F)(F)(F)F` — result for “complete inhibition concentration”: 5 µM (DNA topoisomerase 1 (TOP1, Homo sapiens, UniProt P11387)).
The kpol of `Nc1nc2c(ncn2[C@H]2C[C@H](O)[C@@H](COP(=O)(O)OP(=O)(O)[C@@H](Cl)P(=O)(O)O)O2)c(=O)[nH]1` is reported as 0.051 ± 0.003 s⁻¹ (POLB; substrate, quench-flow kinetics; pH 8.0, 37 °C, misincorporation opposite T in gapped DNA).
With `Clc1ccc(-c2n[nH]cc2CN2CCN(C34CC(C3)C4)CC2)cc1` the Emax was 73.8% (5-hydroxytryptamine receptor 2C (HTR2C, Homo sapiens, UniProt P28335); β-arrestin recruitment, agonist).
For `CC(C)CCC[C@@H](C)[C@H]1CC[C@H]2[C@@H]3CC=C4C[C@@H](OS(=O)(=O)O)CC[C@]4(C)[C@H]3CC[C@]12C`, the Hill slope was 2.8 ± 0.4 (Prothrombin (F2, Homo sapiens, UniProt P00734); enzyme activity, inhibitor, chromogenic substrate; pH 7.4, 25 °C, 0.02% Tween 80).
`CCC1(O)CCCN(C(=O)c2ccc(-c3ccccc3C(F)(F)F)cc2)C1` (stereo not shown) has a signal attenuation of 63.8 ± 2.9% (DNA dC->dU-editing enzyme APOBEC-3A (Homo sapiens, UniProt P31941); binding, 1H CPMG NMR).
Under activity, `Cc1ccc(/C=N/N=C(c2ccc(N(C)C)cc2)c2ccc(N(C)C)cc2)cc1` is recorded as “inactive” (Alpha-glucosidase MAL12 (MAL12, Saccharomyces cerevisiae S288c, UniProt P53341); enzyme activity, inhibitor; concentration not given, pH 6.8, 37 °C, together with: p-nitrophenyl alpha-D-glucopyranoside).
`COc1cccc(-c2cc(C(F)(F)F)nc(NCc3ccc(F)cc3)n2)c1` gave an Emax of 159 ± 12% (SCTR; increase of tracer binding, TR-FRET; HEK293 membranes; together with: Fluo-Sec 6 nM).
For `O=C(N[C@@H](Cc1ccc(OCCCCC2CCNCC2)cc1)C(=O)O)c1nc2ccccc2o1.O=C(O)C(F)(F)F`, “concentration for occupancy” read 688 nM (Integrin alpha-IIb/beta-3 (Homo sapiens, UniProt P05106+P08514); ODE model; human, diluted whole blood; 50% occupancy, dilution 1:1).
`CNc1ccccc1C(=O)O[C@H]1C[C@H](n2cnc3c(N)ncnc32)O[C@@H]1COP(=O)(O)OP(=O)(O)O`: “association rate constant” 5.55e+06 ± 230000 M⁻¹ s⁻¹ (Unconventional myosin-Va (Gallus gallus, UniProt Q02440, D297C/G292C/I296C/S293C/V295G); stopped-flow FRET; 25 °C, together with: MgCl2 2 mM).
Under “maximal current density”, `O=C(c1cc2c(s1)CCCCC2)N1CCC(n2c(=O)[nH]c3ccccc32)CC1` is recorded as 27.4 ± 4.69 pA/pF (Short transient receptor potential channel 6 (Trpc6, Mus musculus, UniProt Q61143, E671C); ion current, agonist, whole-cell patch clamp; 100 µM, E671C mutant).
`N#Cc1ccccc1Oc1ccc(Cl)cc1O` gave a residence time of 30 min (Enoyl-[acyl-carrier-protein] reductase [NADPH] FabI; binding).
For `CCCCCCCC/C=C\CCCCCCCC(=O)O[C@@H]1C=CCO[C@@H]1COP(=O)(O)S` (stereo partly shown), the Emax was 39% (Lysophosphatidic acid receptor 2 (LPAR2, Homo sapiens, UniProt Q9HBW0); agonist, TGFα shedding).
With `Cc1cn([C@H]2C[C@H](O)[C@@H](COP(=O)(O)OP(=O)(O)C(Br)(Br)P(=O)(O)O)O2)c(=O)[nH]c1=O` the kpol was 0.25 ± 0.01 s⁻¹ (POLB; nucleotide incorporation rate, substrate, single-turnover kinetics; single-nucleotide gapped DNA; 37 °C, wild type, correct incorporation, together with: dTTP opposite template A).
For `CN1CCN(CC(=O)N2N=C3/C(=C/c4ccccc4)CCCC3C2c2ccccc2)CC1` (mixture of isomers), the enzyme activity was 75% (Polyunsaturated fatty acid lipoxygenase ALOX12 (ALOX12, Homo sapiens, UniProt P18054); activator; 10 µM, together with: arachidonic acid 10 µM; reference: activator 0 µM).
For `COc1cc(Cl)ccc1NC(=O)CCCS(=O)(=O)c1nc(-c2ccc(OC)c(OC)c2)cc(C(F)(F)F)n1`, the Emax was 128 ± 15% (SCTR; increase of tracer binding, TR-FRET; HEK293 membranes; together with: Fluo-Sec 6 nM).
`O=C(O)C1CC(OS(=O)(=O)c2ccc(-c3ccc(F)cc3)cc2)CN1` (stereo not shown) gave an outward current of 8 ± 2 pA (Neutral amino acid transporter B(0) (SLC1A5, Homo sapiens, UniProt Q15758); HEK293; 100 µM).
`Nc1nc2c(ncn2[C@H]2C[C@H](O)[C@@H](COP(=O)(O)OP(=O)(O)CP(=O)(O)O)O2)c(=O)[nH]1` has a kpol of 0.003 ± 0.0002 s⁻¹ (POLB; nucleotide incorporation rate, substrate, single-turnover kinetics; single-nucleotide gapped DNA; 37 °C, wild type, misincorporation, together with: dGTP opposite template A).
`COc1ccc(-c2cc(C(F)(F)F)nc(S(=O)(=O)CCCC(=O)Nc3ccc(F)c(Cl)c3)n2)cc1OC` has an Emax of 13% (SCTR; cAMP, agonist).
With `CS(=O)(=O)CCC1NC(=O)C(Cc2ccco2)NC(=O)C(CC2CC2)NC(=O)C=CC(=O)NC(C(N)=O)CCNC1=O` (stereo not shown) the enrichment factor was 0.66 (KDR; DNA-templated library selection; one selection round).
The kpol/Kd of `Nc1nc2c(ncn2C2CC(O)C(COP(=O)(O)OP(=O)(O)C(Cl)P(=O)(O)O)O2)c(=O)[nH]1` (mixture of isomers) is reported as 8.5 ± 4.1 M⁻¹ s⁻¹ (POLB I260M; nucleotide incorporation, substrate, single turnover kinetics; dG misincorporation opposite A).
`COc1ccc(-c2cc(C(F)(F)F)nc(SCC(=O)N(C)c3ccccc3)n2)cc1OC` — result for “cooperativity factor beta”: 0.3 (SCTR; efficacy cooperativity, allosteric modulator; cells overexpressing SCTR; together with: secretin(3-27)).
For `CC(=O)N[C@@H](CC(=O)O)C(=O)N[C@@H](CCC(=O)O)C(=O)N[C@H](C(=O)N[C@@H](CC(=O)O)C(=O)Nc1ccc2c(C)cc(=O)oc2c1)C(C)C`, the Vmax was 863 ± 31.6 RFU/min (Caspase-4 (CASP4, Homo sapiens, UniProt P49662); substrate cleavage, substrate, fluorogenic AMC release; enzyme 0.25 activity units/µL).
With `Cc1c(C(=O)NNC(=S)Nc2ccc(Cl)cc2)nnn1Cc1nc2ccccc2[nH]1` the relative activity was ~45% (KDR; inhibitor; concentration not given; reference: sorafenib).

Repeated from above:
The remaining activity of `CNC(=O)c1cc(Oc2ccc(NC(=O)Nc3ccccc3)cc2)ccn1` is reported as 1.18 ± 0.16 fold (Signal peptidase IB (spsB, Staphylococcus aureus, UniProt Q5HHB9); enzyme activity, FRET peptide cleavage; Staphylococcus aureus membranes; 50 µM; reference: DMSO).
For `[3H]C([3H])([3H])c1cnccc1CN1C[C@@H](c2cc(F)c(F)c(F)c2)CC1=O`, the Bmax was 0.18 pmol/mg (Synaptic vesicle glycoprotein 2A (SV2A, Homo sapiens, UniProt Q7L0J3); radioligand binding, saturation binding; human Alzheimer disease, pooled frontal cortex homogenate).
